Measurements of several laboratories.
Numbered parts are unrelated; each lists some results of a single study.

Block 1 — technique: RNAcompete; molecule type: RNA; sample: in vitro; concentration: 20 nM; notes: 7-mer, probes averaged, single round; relative to: mean of 7-mers; reading: higher = stronger binding; endpoint: 7-mer Z-score
Target: PABPC1L2, full length, GST fusion (mouse, UniProt A0ABA7IW68)
Target sequence (chain): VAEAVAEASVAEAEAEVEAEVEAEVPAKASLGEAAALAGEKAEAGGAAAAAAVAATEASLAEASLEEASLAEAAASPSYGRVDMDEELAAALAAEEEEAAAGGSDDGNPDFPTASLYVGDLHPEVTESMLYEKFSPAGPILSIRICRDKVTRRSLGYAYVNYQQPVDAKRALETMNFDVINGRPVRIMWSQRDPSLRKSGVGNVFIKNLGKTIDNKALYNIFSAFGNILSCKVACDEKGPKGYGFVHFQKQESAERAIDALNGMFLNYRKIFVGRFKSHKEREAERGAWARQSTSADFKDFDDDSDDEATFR
AGUCAGG: 0.0913
GUUUUUA: -0.195
ACCGAAU: -0.126
CCUCCGU: -0.371
GUUACUA: -0.215
GAUUUCG: -0.378
UCACGGG: 0.104

Block 2 — technique: universal PBM; molecule type: double-stranded DNA, one strand shown; sample: in vitro; concentration: not given; reading: higher = stronger binding; endpoint: E-score
Target: Sal-like protein 4, full length isoform B (SALL4, Homo sapiens, UniProt Q9UJQ4-2, residues 1-616)
Notes: 8-mer, flanks averaged, mean of replicates
CTGGCAGA: -0.125
CAAACAGA: -0.0342
GTAGGCAA: 0.00781
ACATTCCT: 0.064
TAATAAAA: 0.43
ACAACATC: 0.186

Block 3 — technique: protein binding microarray; molecule type: double-stranded DNA, one strand shown; sample: in vitro; concentration: not given; relative to: not given; reading: higher = stronger binding; endpoint: E-score
Target: Histone acetyltransferase KAT6A, both winged helices, GST fusion (KAT6A, Homo sapiens, UniProt Q92794, residues 1-181)
Notes: 8-mer, flanks averaged, mean of 2 arrays, mostly near background
Residues (chain): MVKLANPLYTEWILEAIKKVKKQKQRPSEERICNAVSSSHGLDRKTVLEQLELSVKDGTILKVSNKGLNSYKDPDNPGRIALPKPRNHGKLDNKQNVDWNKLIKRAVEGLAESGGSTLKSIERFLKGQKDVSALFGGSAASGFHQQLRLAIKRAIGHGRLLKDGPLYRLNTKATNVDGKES
CGTACGGA: 0.25
TCACCAGA: -0.0865
AGGTAGTA: -0.0386
AACGCAAT: 0.248
AGTTTCCA: -0.0996

Single results of other studies
PhoQ, residues 284 288 289 292 302 303 ASHLAV
fold induction (PhoP, residues 12 14 15 18 19 STWGI (Escherichia coli, UniProt P23836); Sort-seq, measured: YFP reporter; E. coli; PhoQ-PhoP variant library, with: 10 µM Mg2+; relative to: high Mg2+ state, higher = stronger signaling): 4.27

A few entries again (block 1):
AGUCAGG: 0.0913
GUUUUUA: -0.195
